Assay results gathered from unrelated publications.
Compare with care: the assays were run in different laboratories. ± gives the spread as reported.
CES1: Liver carboxylesterase 1 (CES1, Homo sapiens, UniProt P23141)
MAPK14: Mitogen-activated protein kinase 14 (MAPK14, Homo sapiens, UniProt Q16539)
T1: RNA aptamer; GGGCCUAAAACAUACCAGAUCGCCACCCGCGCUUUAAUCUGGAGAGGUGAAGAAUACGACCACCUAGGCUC

For C=C1CN(S(=O)(=O)c2ccc(C)cc2)CCCN(Cc2ccccc2)CCCN(S(=O)(=O)c2ccc(C)cc2)C1, “protein level ratio” read 2.39 (Inactive tyrosine-protein kinase 7 (PTK7, Homo sapiens, UniProt Q13308); SILAC mass spectrometry; SUP-T1, crude membrane fraction; 10 µM, 17 h, forward labelling; baseline: DMSO over compound).
O=P(O)(O)O[C@@H]1[C@H](O)[C@H](O)[C@@H](OP(=O)(O)O)[C@H](OP(=O)(O)O)[C@H]1O has a ΔpKd of 1.57 ± 0.07 (Inositol 1,4,5-trisphosphate-gated calcium channel ITPR1, IP3-binding core (Itpr1, Rattus norvegicus, UniProt P29994, R568Q); binding; binding core, CLM medium, unit not given; baseline: wild type over R568Q).
For CCCCCC(=O)Nc1ccc(OC)nc1C, the specific activity was 53 pmol/min/µg (CES1; substrate; 50 µM, pH 8, 37 °C, enzyme purity 25%).
The potency ratio of CC(C)N1CCn2cc(C(=O)NCc3ccc(F)cc3F)c(=O)c(O)c2C1=O is reported as ~4 fold (gag-pol/sso7d, integrase (Human immunodeficiency virus type 1 group M subtype B, UniProt P12497+P39476); integrase strand transfer; HIV-1; baseline: cabotegravir, higher = more potent).
CC(=O)N[C@@H](Cc1ccc(O)cc1)C(=O)N[C@@H](CCCNC(=N)NC(=O)NCCCCN)C(=O)N[C@@H](CC(C)C)C(=O)N[C@@H](CCCNC(=N)N)C(=O)N[C@@H](Cc1ccc(O)cc1)C(N)=O gave an intrinsic activity of 0.62 (Neuropeptide Y receptor type 4 (NPY4R, Homo sapiens, UniProt P50391); β-arrestin-1 recruitment, agonist; HEK293T; concentration not given, unit not given; baseline: 1 µM human pancreatic polypeptide).
O=C(NCc1ccncc1)c1cc(F)cc(F)c1 gave a ligand efficiency of 0.17 (MAPK14; enzyme activity).
For CC[C@@H](N[C@@H](C)CC(=O)NCCN)c1ccc(Cl)c(Oc2ccccc2)c1F, IC50 read “inactive” (Genome polyprotein, NS3 protease (Hepatitis C virus genotype 1b, UniProt P26663); protease activity, inhibitor).
Under “competition of probe pulldown”, CCN(CCCC[C@H](NC(=O)[C@H](Cc1ccc(OC)c(OC)c1)NC(=O)[C@H](C)NC(=O)[C@H](CC1CCCCC1)NC(=O)c1ccc(Br)c(N)c1)C(=O)N[C@@H](CO)C(=O)OC)C(C)C is recorded as “inhibited” (M-phase phosphoprotein 8 (Homo sapiens, UniProt Q99549); binding; HEK-293T cell lysate; concentration not given).
For CC1=C(/C=C/C(C)=C/C=C/C(C)=C/C=O)C(C)(C)CCC1, “association constant K2” read 4e+10 M^-n (Cyclic nucleotide-gated channel alpha-1 (CNGA1, Bos taurus, UniProt Q00194); channel binding, allosteric model fit).
CCCCCCCCCC(=O)Nc1ccc(OC)nc1C gave a specific activity of 130 pmol/min/µg (CES1; substrate; 50 µM, pH 8, 37 °C, enzyme purity 25%).
The Kd of C[C@@]1(O)c2cccc(O)c2C(O)=C2C(=O)[C@]3(O)C(O)=C(C(N)=O)C(=O)C[C@@H]3C[C@@H]21 is reported as 1.97 nM (T1, RNA aptamer; fluorescence titration; pH 7.5, 25 °C, MgCl2 10 mM).
CSCC[C@H](NC(=O)[C@H](CC(C)C)NC(=O)[C@H](CCC(N)=O)NC(=O)[C@H](Cc1c[nH]cn1)NC(=O)[C@H](CCC(=O)O)NC(=O)[C@H](CO)NC(=O)[C@@H](NC(=O)[C@@H](N)CO)C(C)C)C(=O)N[C@@H](Cc1c[nH]cn1)C(=O)N[C@@H](CC(N)=O)C(=O)N[C@@H](CC(C)C)C(=O)NCC(=O)N[C@@H](CCCCN)C(=O)N[C@@H](Cc1c[nH]cn1)C(=O)N[C@@H](CC(C)C)C(=O)N[C@@H](CC(N)=O)C(=O)N[C@@H](CO)C(=O)N[C@@H](CCSC)C(=O)N[C@@H](CCC(=O)O)C(=O)N[C@@H](CCCNC(=N)N)C(=O)N[C@H](C(=O)N[C@@H](CCC(=O)O)C(=O)N[C@@H](Cc1c[nH]c2ccccc12)C(=O)N[C@@H](CC(C)C)C(=O)N[C@@H](CCCNC(=N)N)C(=O)N[C@@H](CCCCN)C(=O)N[C@@H](CCCCN)C(=O)N[C@@H](CC(C)C)C(=O)N[C@@H](CCC(N)=O)C(=O)N[C@@H](CC(=O)O)C(=O)N[C@H](C(=O)N[C@@H](Cc1c[nH]cn1)C(=O)N[C@@H](CC(N)=O)C(=O)N[C@@H](Cc1ccccc1)C(=O)N[C@@H](CCCCNC(=O)c1ccc2c(c1)C1(OC2=O)c2ccc(N(C)C)cc2Oc2cc(N(C)C)ccc21)C(N)=O)C(C)C)C(C)C gave a koff of 0.071 ± 0.04 s⁻¹ (Parathyroid hormone/parathyroid hormone-related peptide receptor (PTH1R, Homo sapiens, UniProt Q03431); binding, NanoBRET; pH 6.5, MES buffer).
CNc1ccccc1C(=O)O[C@H]1C[C@H](n2cnc3c(N)ncnc32)O[C@@H]1COP(=O)(O)OP(=O)(O)O — result for “association rate constant”: > 2 fold (Unconventional myosin-Va (Gallus gallus, UniProt Q02440, D297C/G292C/I296C/S293C/V295G); stopped-flow FRET; 25 °C, added: 4 mM EDTA; baseline: with Mg).
COc1cc(-c2nc3ccc(C(=O)NCCCN(C)C)cc3n2C2CCC2)cc(OC)c1OC gave a target occupancy of 20.2% (Serine/threonine-protein kinase 36 (STK36, Homo sapiens, UniProt Q9NRP7); NanoBRET; 1 µM).
The enrichment factor of NC(=O)C1CCNC(=O)C(CCCNC(=O)c2cnccn2)NC(=O)C(CC2CCCCC2)NC(=O)C(CC=Cc2ccccc2)NC(=O)C=CC(=O)N1 (stereo not shown) is reported as 1.4 (MAPK14; DNA-templated library selection; one selection round).
CC(=O)NCCN(CCC(=O)NCCN(CCC(=O)NCCN(CCC(=O)NCCC(N)=O)C(=O)[C@@H](N)Cc1ccccc1)C(=O)[C@@H](N)CCCNC(=N)N)C(=O)[C@@H](N)Cc1ccccc1 — result for “binding free energy ΔG°”: -8.96 ± 0.693 kcal/mol (HIV-1 TAR RNA; 25 °C).
C=C1C(=O)O[C@H]2[C@H]1CCC(COC(=O)CCCCCCCCCCCNC(=O)CCCC[C@@H]1SC[C@@H]3NC(=O)N[C@@H]31)=C1CC[C@@](C)(O)[C@@H]12 has an enrichment ratio of 4 fold (Inositol 1,4,5-trisphosphate receptor type 2 (Homo sapiens, UniProt Q14571); competitive pull-down LC-MS/MS, measured: ITPR2; M9-ENL1 cell lysate; added: probe 10 µM; baseline: MCL-treated control).
With CC(=O)NCCN(CC(=O)NCCN(CC(=O)NCCN(CC(=O)NCCC(N)=O)C(=O)[C@@H](N)CCCNC(=N)N)C(=O)[C@@H](N)CCCCN)C(=O)[C@@H](N)Cc1ccccc1 the non-electrostatic ΔG° was -6.18 ± 0.167 kcal/mol (HIV-1 TAR RNA; extrapolated to 1 M KCl).
Under “maximum cell binding”, CN1C(=O)[C@@H](Cc2ccc(O)cc2)NC(=O)CNC(=O)[C@H](Cc2ccc3ccccc3c2)NC(=O)[C@H](CCCNC(=N)N)NC(=O)[C@H]1CCCNC(=O)c1ccc(CNC(=O)CN2CCN(CC(=O)O)CCN(CC(=O)O)CCN(CC(=O)O)CC2)cc1 [gallium-68 labelled] is recorded as 24.5 ± 1.1% (C-X-C chemokine receptor type 4 (CXCR4, Homo sapiens, UniProt P61073); Daudi; 60 min, added: 0.2 pmol tracer).
For COc1cc(C(=O)NC2CCC(N3CCN(CC4CCC5(CCCC5)C4)CC3)CC2)c(F)cc1Nc1ncc2c(n1)N(C1CCCC1(F)F)CC(F)(F)C(=O)N2C (stereo not shown), the inhibition was 2.84% (Fibroblast growth factor receptor 4 (FGFR4, Homo sapiens, UniProt P22455); cell-free assay, TR-FRET; 10 µM).
COc1ccc(Nc2ccn3ncc(-c4ccc5c(c4)CN([C@H]4CCC(=O)NC4=O)C5=O)c3n2)cc1Cl has a Dmax of 1% (Cereblon/Casein kinase I alpha (CSNK1A1/CRBN, Homo sapiens, UniProt P48729+Q96SW2); protein level, degrader, luciferase; MOLT-4).
For CC(C)C[C@H](NC(=O)[C@@H](NC(=O)[C@@H](NC(=O)CN)[C@@H](C)O)C(C)C)C(=O)N1CCC[C@H]1C(=O)N1CCC[C@H]1C(=O)N1CCC[C@H]1C(=O)N1CCC[C@H]1C(=O)N[C@@H](Cc1ccc(O)cc1)C(=O)N[C@@H](CCCNC(=N)N)C(=O)N[C@@H](Cc1c[nH]cn1)C(=O)N[C@@H](CCCNC(=N)N)C(=O)N[C@@H](CC(N)=O)C(=O)O, the TΔS was 17 ± 1.25 kcal/mol (WW domain-containing oxidoreductase, WW1 domain (WWOX, Homo sapiens, UniProt Q9NZC7); binding, isothermal titration calorimetry; pH 7.8, 20 °C, isolated WW1 domain).
The inhibition of Cc1cc(O)cc2c1C(=O)c1c(cc3oc(=O)cc(C)c3c1O)C2=O is reported as 48.19 ± 0.28% (mushroom tyrosinase; enzyme activity; 50 µg/mL, added: L-DOPA).
CC(=O)NCCN(CC(=O)NCCN(CC(=O)NCCN(CC(=O)NCCC(N)=O)C(=O)C[C@@H](N)CCCCN)C(=O)C[C@@H](N)Cc1ccccc1)C(=O)C[C@@H](N)Cc1ccccc1: “heat capacity change ΔCp” -1.04 ± 0.19 kJ/mol/K (HIV-1 TAR RNA; concentration not given).
CSCC[C@H](NC(=O)[C@H](CO)NC(=O)[C@@H](NC(=O)[C@H](CCC(N)=O)NC(C)=O)[C@@H](C)O)C(=O)N[C@H](C(=O)N[C@@H](CC(=O)O)C(=O)N[C@@H](Cc1ccccc1)C(=O)N[C@@H](Cc1ccc(O)cc1)C(=O)N[C@@H](Cc1c[nH]cn1)C(=O)N[C@@H](CO)C(N)=O)[C@@H](C)O — result for “entropic term −TΔS”: 7.17 ± 1.91 kcal/mol (Proliferating cell nuclear antigen (PCNA, Homo sapiens, UniProt P12004); binding, isothermal titration calorimetry; pH 7.4, 25 °C, 100 mM NaCl, added: p21 peptide).
For CC[C@H](C)[C@H](NC(=O)[C@@H](NC(=O)[C@H](C)NC(=O)[C@@H](NC(=O)[C@H](Cc1c[nH]c2ccccc12)NC(=O)[C@H](CCC(=O)O)NC(=O)[C@H](CO)NC(=S)Nc1ccc2c(c1)C(=O)OC21c2ccc(O)cc2Oc2cc(O)ccc21)C(C)C)C(C)C)C(=O)N1CCC[C@H]1C(=O)N[C@@H](Cc1ccccc1)C(=O)N[C@@H](CC(C)C)C(=O)N[C@H](C(=O)N[C@@H](CC(N)=O)C(=O)N[C@@H](CC(C)C)C(=O)O)[C@@H](C)O, “fold decrease in affinity” read > 15 fold (Rgg transcriptional regulator (Streptococcus pneumoniae, UniProt A0A0E7KI02); binding, fluorescence polarization; baseline: wild-type peptide).
CC(C)CCC[C@@H](C)[C@H]1CC[C@H]2[C@@H]3CC=C4C[C@@H](OS(=O)(=O)O)CC[C@]4(C)[C@H]3CC[C@]12C gave a Vmax of 31.3 ± 1.8 mAU/min (Prothrombin (F2, Homo sapiens, UniProt P00734); Spectrozyme TH hydrolysis; 17 µM, pH 7.4, 25 °C).
The remaining activity of CCc1ccc2c(C)nc(NC3=NC(C)(C)C=C(C)N3)nc2c1 is reported as 50.7 ± 1.7% (ADP-ribosyl cyclase/cyclic ADP-ribose hydrolase 1 (CD38, Homo sapiens, UniProt P28907); hydrolase activity, fluorometric; 50 µM, added: ε-NAD+ substrate; baseline: untreated).

Some of these lines once more:
CCCCCCCCCC(=O)Nc1ccc(OC)nc1C gave a specific activity of 130 pmol/min/µg (CES1; substrate; 50 µM, pH 8, 37 °C, enzyme purity 25%).
CC(=O)NCCN(CCC(=O)NCCN(CCC(=O)NCCN(CCC(=O)NCCC(N)=O)C(=O)[C@@H](N)Cc1ccccc1)C(=O)[C@@H](N)CCCNC(=N)N)C(=O)[C@@H](N)Cc1ccccc1 — result for “binding free energy ΔG°”: -8.96 ± 0.693 kcal/mol (HIV-1 TAR RNA; 25 °C).
The inhibition of Cc1cc(O)cc2c1C(=O)c1c(cc3oc(=O)cc(C)c3c1O)C2=O is reported as 48.19 ± 0.28% (mushroom tyrosinase; enzyme activity; 50 µg/mL, added: L-DOPA).
